# Results of several laboratories.
# Numbered parts are unrelated; each lists some results of a single study. Positions count from the first letter of the parent shown. pIC50: −log10 of the molar value.
# Sequence of UniProt P49841 (whole entry, looked up): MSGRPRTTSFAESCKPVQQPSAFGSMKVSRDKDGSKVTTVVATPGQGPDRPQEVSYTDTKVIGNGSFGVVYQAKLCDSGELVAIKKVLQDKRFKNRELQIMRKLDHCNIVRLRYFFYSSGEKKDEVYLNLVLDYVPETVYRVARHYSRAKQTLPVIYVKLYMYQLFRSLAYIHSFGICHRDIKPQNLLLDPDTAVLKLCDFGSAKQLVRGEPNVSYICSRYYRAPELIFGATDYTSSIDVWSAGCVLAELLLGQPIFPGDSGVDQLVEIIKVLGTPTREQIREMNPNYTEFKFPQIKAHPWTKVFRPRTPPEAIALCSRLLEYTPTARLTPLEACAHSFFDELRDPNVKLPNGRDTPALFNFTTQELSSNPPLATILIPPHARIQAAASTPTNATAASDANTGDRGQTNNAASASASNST
# Sequence of UniProt Q00532 (whole entry, looked up): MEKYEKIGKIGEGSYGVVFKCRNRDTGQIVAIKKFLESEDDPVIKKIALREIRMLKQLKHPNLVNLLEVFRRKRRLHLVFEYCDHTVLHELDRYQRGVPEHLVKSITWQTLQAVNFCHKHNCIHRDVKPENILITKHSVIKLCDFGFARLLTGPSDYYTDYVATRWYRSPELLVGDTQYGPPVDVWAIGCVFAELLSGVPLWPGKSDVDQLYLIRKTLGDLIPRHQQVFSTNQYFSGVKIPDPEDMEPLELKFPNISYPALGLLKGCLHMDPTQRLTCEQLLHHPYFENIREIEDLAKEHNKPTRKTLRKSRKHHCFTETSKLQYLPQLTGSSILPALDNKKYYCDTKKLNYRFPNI

# Sample 1
# Target: CCNE2, cyclin fold, Cln2 fusion (human)
# Method: yeast growth competition, sequencing
# Sample: yeast
# Setting: strong parent motif
# Baseline: not given
# Direction: higher = stronger binding
# Starting sequence: viral docking peptide; TSVRRALFTGGSD
Substitution,normalised enrichment score
TSVRRMLFTGGSD [A6M],2.71
TSVRRALFTGMSD [G11M],3.7
TSVRRILFTGGSD [A6I],4.51
TSVRRALFGGGSD [T9G],3.32
TSVRRALFTAGSD [G10A],3.9
TSVRRALFAGGSD [T9A],2.72
TSVRRALFTGGQD [S12Q],4.41
TSVRRALITGGSD [F8I],-0.0425

# Sample 2
# Target: UDP-N-acetylglucosamine--peptide N-acetylglucosaminyltransferase 110 kDa subunit (OGT, Homo sapiens, UniProt O15294)
# Sequence of UniProt O15294 (whole entry, looked up): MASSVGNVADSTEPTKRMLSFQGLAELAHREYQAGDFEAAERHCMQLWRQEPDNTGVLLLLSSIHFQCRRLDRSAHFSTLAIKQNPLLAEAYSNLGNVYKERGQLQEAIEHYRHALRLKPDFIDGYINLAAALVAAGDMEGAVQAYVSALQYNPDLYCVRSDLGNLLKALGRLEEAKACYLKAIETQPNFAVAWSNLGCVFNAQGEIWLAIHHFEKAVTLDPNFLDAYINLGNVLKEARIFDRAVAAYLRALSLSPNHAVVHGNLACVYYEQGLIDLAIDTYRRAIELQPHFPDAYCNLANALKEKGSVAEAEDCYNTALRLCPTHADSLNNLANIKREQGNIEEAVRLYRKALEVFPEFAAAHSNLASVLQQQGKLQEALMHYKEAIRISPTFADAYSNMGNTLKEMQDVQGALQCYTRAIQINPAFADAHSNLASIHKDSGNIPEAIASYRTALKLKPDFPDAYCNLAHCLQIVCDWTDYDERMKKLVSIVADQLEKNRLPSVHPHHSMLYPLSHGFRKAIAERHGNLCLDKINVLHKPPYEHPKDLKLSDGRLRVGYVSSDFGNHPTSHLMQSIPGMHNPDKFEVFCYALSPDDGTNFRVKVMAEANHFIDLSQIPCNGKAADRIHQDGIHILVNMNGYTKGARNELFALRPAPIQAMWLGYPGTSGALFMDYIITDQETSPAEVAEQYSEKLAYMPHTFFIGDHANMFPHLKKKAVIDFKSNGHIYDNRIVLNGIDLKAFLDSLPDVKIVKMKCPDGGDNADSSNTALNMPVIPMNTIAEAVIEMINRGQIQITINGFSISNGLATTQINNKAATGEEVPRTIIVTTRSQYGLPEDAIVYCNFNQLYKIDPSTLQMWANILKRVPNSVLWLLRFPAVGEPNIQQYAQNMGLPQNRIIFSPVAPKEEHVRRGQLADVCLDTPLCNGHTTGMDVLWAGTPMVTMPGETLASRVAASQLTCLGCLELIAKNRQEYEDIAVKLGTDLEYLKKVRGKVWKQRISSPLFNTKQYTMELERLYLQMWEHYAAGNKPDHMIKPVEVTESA
# Effect on: binding
# Method: phage display NGS
# Form: peptide
# Tested at: concentration not given
# Baseline: input library
Sequence,enrichment fold change
HVRGHHHIFTQGAD,9.48
HMKHMAIAMGGHFHT,3.85
STYTPFYPIKFWANR,1.66
HRHGWQIHLNDGVW,3.05
QMDGMFPPKYQINSF,3.86
HIYPRHQHSFEPVK,10.1
YSTHDTHMWHQTHAM,3.69
NIMPAYQIMYPANFR,25.2

# Single results of other studies
SMILES,target,effect on,mode,method,tested at,endpoint,value
CNC(=O)c1ccc(-c2cnn3ccc(C(=O)N(C)c4ccc(Cl)c(C(=O)OC)c4)cc23)cc1,"GSK3B (Homo sapiens, UniProt P49841)",enzyme activity,inhibitor,,,pIC50,4.72
Cn1cncc1[C@](O)(COc1ccc(C#N)cc1-c1ccc(OC(F)(F)F)cc1)c1ccc(C#N)cc1,"CDKL1 (Homo sapiens, UniProt Q00532)",cell-free assay,,competition with immobilised ligand,1 µM,remaining binding,82%

# Excerpt of the above (sample 2):
Sequence,enrichment fold change
QMDGMFPPKYQINSF,3.86
HIYPRHQHSFEPVK,10.1
